Results pooled from the literature.
Compare with care: the assays were run in different laboratories. ± gives the spread as reported.
SIRT1: NAD-dependent protein deacetylase sirtuin-1 (SIRT1, Homo sapiens, UniProt Q96EB6)
UniProt Q96EB6, sequence (whole entry, unmodified, looked up): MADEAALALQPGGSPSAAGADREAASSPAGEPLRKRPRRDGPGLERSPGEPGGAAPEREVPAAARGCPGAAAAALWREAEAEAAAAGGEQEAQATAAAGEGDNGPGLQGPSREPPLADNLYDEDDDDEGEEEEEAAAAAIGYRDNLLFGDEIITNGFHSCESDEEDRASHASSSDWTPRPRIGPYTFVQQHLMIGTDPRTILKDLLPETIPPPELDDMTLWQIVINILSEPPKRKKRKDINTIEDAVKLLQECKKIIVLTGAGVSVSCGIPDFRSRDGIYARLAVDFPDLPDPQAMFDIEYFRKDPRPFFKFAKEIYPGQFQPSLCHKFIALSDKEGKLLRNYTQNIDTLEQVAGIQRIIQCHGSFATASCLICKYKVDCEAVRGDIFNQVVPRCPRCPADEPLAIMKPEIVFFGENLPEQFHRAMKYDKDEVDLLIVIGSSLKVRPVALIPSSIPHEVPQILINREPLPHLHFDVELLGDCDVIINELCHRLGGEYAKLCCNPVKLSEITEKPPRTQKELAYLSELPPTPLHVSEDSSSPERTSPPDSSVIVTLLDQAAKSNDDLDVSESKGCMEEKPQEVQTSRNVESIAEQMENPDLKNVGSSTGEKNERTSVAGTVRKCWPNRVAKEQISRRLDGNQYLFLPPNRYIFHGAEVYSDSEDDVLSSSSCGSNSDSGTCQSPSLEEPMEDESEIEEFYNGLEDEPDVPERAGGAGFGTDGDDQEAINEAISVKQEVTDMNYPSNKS

CCCCCCCCCCCCCC(=S)NCCCC[C@H](NC(=O)[C@H](CCCNC(=N)N)NC(=O)[C@H](C)N)C(=O)N[C@@H](CO)C(=O)N[C@H](C(=O)O)[C@@H](C)O
IC50 (SIRT1): 4.4 µM

CN(Cc1ccc(F)cc1)Cc1cc(=O)oc2cc(O)ccc12
Kd (SIRT1; binding, SPR): 26.4 µM

C#CC[C@H](NC(=O)[C@H](Cc1ccccc1)NC(=O)[C@H](CCSC)NC(=O)[C@H](CC(C)C)NC(=O)[C@H](CCCCNC(C)=S)NC(=O)[C@H](CCCCN)NC(=O)[C@H](Cc1c[nH]cn1)NC(=O)[C@H](CCCNC(=N)N)NC(=O)CCC1(C)N=N1)C(N)=O
IC50 (SIRT1; enzyme activity, inhibitor; pH 7.5): 0.11 µM

CCCCCCCCCCCCCC(=S)NCCCC[C@H](NS(C)(=O)=O)C(=O)N[C@@H](C)C(=O)N[C@@H](CCCNC(=N)N)C(N)=O
IC50 (SIRT1; enzyme activity, inhibitor): 0.33 ± 0.08 µM

CCCCCCCCCCCCCC(=S)NCCCC[C@H](NC(=O)[C@@H]1CCCN1C(=O)[C@@H](N)CC(C)C)C(=O)N[C@@H](CCCCN)C(=O)N[C@H](C(=O)O)[C@@H](C)O
IC50 (SIRT1): 4.7 µM

COCCn1cc(COc2cccc(Cc3cnc(NC(=O)C(C)c4ccc(CC(C)C)cc4)s3)c2)nn1 (stereo not drawn)
IC50 (SIRT1; enzyme activity, inhibitor, fluorescence): > 100 µM

CC(=S)NCCCC[C@H](NC(=O)[C@H](CCCNC(=N)N)NC(=O)[C@H](C)NC(=O)[C@@H](NC(=O)[C@H](CCC(N)=O)NC(=O)[C@@H](N)CCCCN)[C@@H](C)O)C(=O)N[C@@H](CO)C(=O)N[C@H](C(=O)NCC(=O)NCC(=O)N[C@@H](CCCCN)C(=O)N[C@@H](C)C(=O)O)[C@@H](C)O
IC50 (SIRT1; enzyme activity, inhibitor, HPLC): 1 to 2 µM

Cc1cc(C)nc(SCC(=O)Nc2ncc(Cc3cccc4ccccc34)s2)n1
IC50 (SIRT1; enzyme activity, inhibitor, fluorescence): > 100 µM

O=C(NO)c1ccc(Cn2sc3ccccc3c2=O)cc1
IC50 (SIRT1; enzyme activity, inhibitor): 1.2 µM

CCCCCCCCCCCCNC(=S)NCCCC[C@H](NS(C)(=O)=O)C(=O)N[C@H](C)C(=O)N[C@@H](CCCNC(=N)N)C(N)=O
IC50 (SIRT1; enzyme activity, inhibitor): 3.6 µM

Cc1cc(C)nc(SCC(=O)Nc2ncc(Cc3cccc(OCc4cn(Cc5ccc(C#N)cc5)nn4)c3)s2)n1
IC50 (SIRT1; enzyme activity, inhibitor, fluorescence): > 100 µM

CC(=O)NCCCC[C@H](NC(=O)[C@H](CCCCN)NC(=O)[C@H](Cc1c[nH]cn1)NC(=O)[C@H](CCCNC(=N)N)NC(C)=O)C(=O)Nc1ccc2c(C)cc(=O)oc2c1
Kd (NAD-dependent protein deacetylase sirtuin-1 (SIRT1, Homo sapiens, UniProt Q96EB6, C253S/C268S/C501S/C502S/del513-640/R446A); peptide binding, isothermal titration calorimetry; 10% glycerol; pH 7.5, 25 °C, R446A mutant, with: resveratrol 0.5 mM): 17.7 µM

A few entries again:
O=C(NO)c1ccc(Cn2sc3ccccc3c2=O)cc1
IC50 (SIRT1; enzyme activity, inhibitor): 1.2 µM
